Measurements of several laboratories.
A part holds a random share of what one study measured. Positions count from the first letter of the parent shown.

Series 1
Target: CCNA2, cyclin fold, Cln2 fusion (human)
Method: yeast growth competition, sequencing
Medium: yeast
Notes: strong parent motif
Reference: not given
Reading: higher = stronger binding
Starting sequence: BORA docking peptide (human); SSLRRKLFLDGNG
`SSLARKLFLDGNG [R4A]` — result for “normalised enrichment score”: 1.23.
Under “normalised enrichment score”, `SSLRRALFLDGNG [K6A]` is recorded as 2.07.
Under “normalised enrichment score”, `SSLRKKLFLDGNG [R5K]` is recorded as 1.42.
`SSLRRKLFLDANG [G11A]` — result for “normalised enrichment score”: 2.6.
Under “normalised enrichment score”, `SSLRRKLFADGNG [L9A]` is recorded as 0.695.
For `SSARRKLFLDGNG [L3A]`, “normalised enrichment score” read 4.99.
`SSLRKKLFFDGNG [R5K L9F]` — result for “normalised enrichment score”: 2.08.
`ASLRRKLFLDGNG [S1A]` — result for “normalised enrichment score”: 2.33.

Series 2
Target: ABI1, truncated, D143A, DHFR fusion (Arabidopsis thaliana)
Method: DHFR PCA, deep sequencing
Medium: yeast
Notes: methotrexate growth selection, single substitutions
With: (+)-ABA 710 µM
Reference: wild-type fitted maximum
Reading: higher = stronger binding
Starting sequence: PYL1, truncated, DHFR fusion (Arabidopsis thaliana); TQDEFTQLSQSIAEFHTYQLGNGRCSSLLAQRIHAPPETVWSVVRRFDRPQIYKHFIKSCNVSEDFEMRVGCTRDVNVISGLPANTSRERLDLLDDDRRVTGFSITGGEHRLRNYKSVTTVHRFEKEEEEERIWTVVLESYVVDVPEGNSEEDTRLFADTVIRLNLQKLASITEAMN
`V43P`: “relative binding score” 18%.
`Q19G`: “relative binding score” 100%.
For `K126N`, “relative binding score” read 106%.
`L94N`: “relative binding score” 63.4%.
Under “relative binding score”, `E64W` is recorded as 94.1%.
Under “relative binding score”, `I79Q` is recorded as 107%.
`L93W` — result for “relative binding score”: 92.4%.
`V44D`: “relative binding score” -7.43%.
Under “relative binding score”, `D96F` is recorded as 64.1%.
`F124G` — result for “relative binding score”: 98.9%.
Under “relative binding score”, `K168N` is recorded as 110%.

Series 3
Target: RNA binding protein fox-1 homolog 2, RRM domain, GST-SBP tag (RBFOX2, Homo sapiens, UniProt O43251-10, residues 100-194)
Method: RNA Bind-n-Seq
Form: RNA
Medium: in vitro
Tested at: 365 nM
Notes: natural RNA segment, single round, ends assumed
Reference: no-protein control
Reading: higher = stronger binding
Constant ends, left off below: GGGAGUUCUACAGUCCGACGAUC … UGGAAUUCUCGGGUGCCAA
Construct (chain): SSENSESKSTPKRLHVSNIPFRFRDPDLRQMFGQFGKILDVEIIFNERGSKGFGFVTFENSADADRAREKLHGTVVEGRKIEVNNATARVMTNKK
Under “RBNS enrichment (R)”, `GGUCCCUGUAGGGCAAAAUUCCCAGGCGCCUUGCUGCAGACAGAGUAAGACAAAAACACCAGGAAGCAGGAUUCCGUGCCCAUCUCUGCAGUUUGGGUUCACAAAAGGGG` is recorded as 0.3.
`GUUUGUGGCUGGGGGCAGGAGGGCCCUACCUGAUUGGUGCAACCCUUACCCCUUAGCCUCCCUGAAAAUGUUUUUCUGCCAGGGAGCUUGAAAGUUUUCAGAACCUCUUC` — result for “RBNS enrichment (R)”: 0.303.
Under “RBNS enrichment (R)”, `CUCUUUUUAUGCAGAUAUUUGUGACCUUCAUCUUGCACAUACAACCAAAUUAUUUUAAGGUGCAUAGCACAAAGAUGUAUGCAAACAACUGUUUUAAAUCAGGUCUGAUA` is recorded as 0.413.
`CAGACUGAAGGGCUGUGAGCAGGUGUAAGGGCUCCCACAUCCGUGAGCCUGUGUCCGCAGCUGCUGCCACUCUGGGCUGCUCCAGCCUGCAACUUAGUGGAAGGAAUUAC` — result for “RBNS enrichment (R)”: 0.417.
`AAGGACAUGGCUCUAAAAUUUCCUGUUGAUUGGCAUGUGUAUCUCAUUUAAAGCAAAAUUAGGUAGAACAAACCAGUCAGUAAGAUUAGAAGUAUUACAGAGAAUCAUCC` — result for “RBNS enrichment (R)”: 0.761.
Under “RBNS enrichment (R)”, `ACUGGUGUGUGUUCUCUAUAAGCUCCUGGCCCACUUGGCUUCACUUGAGCAGAAUGACUUGACUGAGUGGUUCUUUGUUGGCCUCAGUUGCUUUAUGUGGGCAUGAGAUG` is recorded as 1.39.
Under “RBNS enrichment (R)”, `UAUCAAGUAGUUGUUUACAUUUGACAAAAUAGGAACUAUGCCGGCAGAGUCCAACCGAAAACCCCCUAGGUGAGAUAGGCAGUAACUGGGCCUGCUGUCUGCGCCUUUCG` is recorded as 0.687.
`AAUUUGAGCCACCAAAAUACACUGCAUUACAGAAAUUGCCACUUGAUUCUGUACUCUUAACCUUUGGCUACUUCACAGACUCCAUUGGCAACACUGUUAUUGAAAAUCAU`: “RBNS enrichment (R)” 0.603.
Under “RBNS enrichment (R)”, `CCAAGUCCUAGCUCCUCCUCCUGGGCUAUAUUCCUGACAAAAGUUCCAUAUAGACACCAAGGAGGCGGAGGCGCUCCUCCCUGCCUCAGUGGCUCUGGGUACCUGCAAGC` is recorded as 0.339.
`UCUCUCCCUUCCCUUACCUGGCCCCUUGGUGCUCCUUCAGCAUUUGUGCUGUCUACCUCUCACUGGGUCCUGGUGGGGGUCGGGCUCCCUUCUCCUGGGGUGAUUGAUGG` — result for “RBNS enrichment (R)”: 0.4.
Under “RBNS enrichment (R)”, `ACAUAAUUGACUUUUUCCAACAAAAUGUAUAUUAUUACAUGUUAGAUAAUAAGAACAAUUGUCCCGUGAAUGAUUCUAUGAAGCUAUGCAUCUUAGACCUCUUGAGCUGU` is recorded as 0.609.
`CCAGUCAAGGUUGCUCUGAACUUUCCCAUAACCAUUAUCCCCCAAGACCACCAGGCUCUGAGUGACCUCUCUAAUUCUGUCUUCCCACCCACCAGUGACUUGACUGCUCU`: “RBNS enrichment (R)” 0.774.

Mixed results
The fold induction of `PhoQ, residues 284 288 289 292 302 303 TLMATV` is reported as 1.86 (PhoP, residues 12 14 15 18 19 YHFSH (Escherichia coli, UniProt P23836); Sort-seq, item: YFP reporter; E. coli; PhoQ-PhoP variant library, with: 10 µM Mg2+; reference: high Mg2+ state, higher = stronger signaling).

Repeated from above (series 3):
`CCAGUCAAGGUUGCUCUGAACUUUCCCAUAACCAUUAUCCCCCAAGACCACCAGGCUCUGAGUGACCUCUCUAAUUCUGUCUUCCCACCCACCAGUGACUUGACUGCUCU`: “RBNS enrichment (R)” 0.774.
`AAUUUGAGCCACCAAAAUACACUGCAUUACAGAAAUUGCCACUUGAUUCUGUACUCUUAACCUUUGGCUACUUCACAGACUCCAUUGGCAACACUGUUAUUGAAAAUCAU`: “RBNS enrichment (R)” 0.603.
Under “RBNS enrichment (R)”, `CUCUUUUUAUGCAGAUAUUUGUGACCUUCAUCUUGCACAUACAACCAAAUUAUUUUAAGGUGCAUAGCACAAAGAUGUAUGCAAACAACUGUUUUAAAUCAGGUCUGAUA` is recorded as 0.413.
